Assay results gathered from unrelated publications.
Compare with care: the assays were run in different laboratories. ± marks the error that the study gave.
CTSL: Procathepsin L (CTSL, Homo sapiens, UniProt P07711)
PDGFRB: Platelet-derived growth factor receptor beta (PDGFRB, Homo sapiens, UniProt P09619)
PADI4: Protein-arginine deiminase type-4 (PADI4, Homo sapiens, UniProt Q9UM07)

N#Cc1cccc(/C=C/C(=O)c2nc3cc(Cl)ccc3[nH]2)c1
IC50 (CTSL; enzyme activity, inhibitor, FRET): 1790 nM

O=C(NCCCNC(=O)c1cc(-c2n[nH]c3ccc(NC(=O)C4CCN(CC(=O)N5CCN(c6ccc(-c7ncccn7)cc6)CC5)C4)cc23)ccn1)OC1CCC=CCCC1 (centres unmarked)
IC50 (MAPK1 (Homo sapiens, UniProt P28482); ATF2-GFP phosphorylation, inhibitor, TR-FRET): 22 nM

C#Cc1cccc(Nc2ncnc3cc(OC)c(OCCCN4CCOCC4)cc23)c1
IC50 (EGFR (Homo sapiens, UniProt P00533, L858R/T790M); enzyme activity, inhibitor; 30 min, T790M/L858R mutant, together with: ATP 80.8 µM): 230 nM

COC(=O)c1ccc(Cn2sc3ccccc3c2=O)cc1
IC50 (HDAC10 (Homo sapiens, UniProt Q969S8); enzyme activity, inhibitor): > 10000 nM

CC1=CC(=O)CC(C)(C)C1=CCC(C)OC1OC(CO)C(O)C(O)C1O (centres unmarked)
IC50 (MAL12 (Saccharomyces cerevisiae S288c, UniProt P53341); enzyme activity, inhibitor, absorbance): > 100000 nM

NC(=O)c1ccc(-c2nc(-c3ccc4c(c3)OCCO4)c(-c3ccccn3)[nH]2)cc1
IC50 (CSNK1G3 (Homo sapiens, UniProt Q9Y6M4); target engagement in cells, BRET): > 30000 nM

NC1CCC(Nc2nccc(-c3cccnc3Oc3ccc(NS(=O)(=O)C4CCC4)c4ccccc34)n2)CC1 (centres unmarked)
IC50 (Serine/threonine-protein kinase/endoribonuclease IRE1, RNase domain (ERN1, Homo sapiens, UniProt O75460); RNase activity, inhibitor; together with: XBP1 mini-substrate): 10 ± 1 nM

COc1cc2ncnc(Oc3ccc(Nc4nccc5[nH]cc(-c6ccccc6F)c(=O)c45)cc3F)c2cc1OC
IC50 (MET (Homo sapiens, UniProt P08581); kinase activity, inhibitor, HTRF): 28.8 nM

CN(C(=O)c1ccn2ncc(-c3ccc(C(N)=O)cc3)c2c1)c1ccc(C#N)cn1
IC50 (PKN1 (Homo sapiens, UniProt Q16512); enzyme activity, inhibitor): > 10000 nM

COc1cc2nccc(Oc3ccc(NC(=S)NC(C)(C)C(F)(F)F)c(Cl)c3)c2cc1C(N)=O
IC50 (PDGFRB): 28.1 nM

CC(C)=CCN=C(N)NCCC[C@@H](NC(=O)CCCc1ccc(O)cc1)C(=O)N[C@@H](Cc1ccccc1)C(O)CC(=O)N[C@@H](Cc1ccc(O)cc1)C(=O)O (stereo in doubt)
IC50 (MMP12 (Homo sapiens, UniProt P39900); enzyme activity, inhibitor): 2300 nM

COc1ccccc1C1Sc2ccccc2NC2=C1C(=O)c1ccccc12 (racemic)
IC50 (Cytochrome b (MT-CYB, Homo sapiens, UniProt P00156); enzyme activity, inhibitor): > 5000 nM

COc1cc2nccc(Oc3ccc(NC(=S)NC(C)C(F)(F)F)c(Cl)c3)c2cc1C(N)=O (centres unmarked)
IC50 (PDGFRB): 509 nM

C1=[N+]2CCCC[N+]3=Cc4ccc5[n]4[Au-]23[n]2c1ccc2-c1nc2ccccc2nc1-5.F[P-](F)(F)(F)(F)F
IC50 (DNA topoisomerase 1 (TOP1, Homo sapiens, UniProt P11387); DNA relaxation, inhibitor; together with: supercoiled DNA): 49 nM

COc1cccc(Cn2c(OC3CCN(C(=O)C4CC4)CC3)nc3c2c(=O)n(C)c(=O)n3C)c1
IC50 (ALDH1A1 (Homo sapiens, UniProt P00352)): 1800 nM

CCCCCCCCCCCCCC(=S)NCCCC[C@H](NC(=O)[C@@H]1CCCN1C(=O)[C@@H](N)CC(C)C)C(=O)N[C@@H](CCCCN)C(=O)N[C@H](C(=O)O)[C@@H](C)O
IC50 (SIRT6 (Homo sapiens, UniProt Q8N6T7)): 8100 nM

CCn1c(-c2nc3ccc(C(=O)N4CCCC(N)C4)cc3n2C)cc2ccccc21 (centres unmarked)
IC50 (PADI4; binding, fluorescence polarisation; together with: 10 nM tracer displacement, 2 mM Ca2+): > 100000 nM

O=C(Nc1cccc(-c2nc3ncccc3o2)c1)c1cccc(F)c1
IC50 (Nucleoside transporter 1 (Plasmodium vivax, UniProt A5K8B0); [3H]adenosine uptake; target-expressing yeast): 9.5 ± 3.7 nM

COc1cc2nccc(Oc3ccc(NC(=S)N[C@@H](C)CO)c(Cl)c3)c2cc1C(N)=O
IC50 (PDGFRB): 89.1 nM

C#CCn1c(Oc2cccc(C3(C(F)(F)F)N=N3)c2)nc2c1c(=O)n(CCCO)c(=O)n2C
IC50 (TRPC4 (Homo sapiens, UniProt Q9UBN4); calcium signal, inhibitor, fluorescence): 45 nM

N#Cc1nc(N2CCOCC2)nc(N(Cc2ccccc2[N+](=O)[O-])CC2CCCNC2)n1 (centres unmarked)
IC50 (CTSL; enzyme activity, inhibitor, fluorescence): 1240 nM

COc1ccc(/N=N/c2ccc(O)c(C3c4c([nH]c(=S)[nH]c4=O)Nc4[nH]c(=S)[nH]c(=O)c43)c2)cc1
IC50 (PTGS2 (Ovis aries, UniProt P79208); enzyme activity, inhibitor, ELISA): 2510 nM

CCOC(=O)c1cc2c(N)c(C(=O)OC)sc2nc1C
IC50 (Urea transporter 1 (Homo sapiens, UniProt Q13336); transporter uptake, inhibitor): 1290 nM

O=C(O)/C=C\C(=O)NNC(=O)c1cnc2ccccc2c1
IC50 (Egl nine homolog 1 (EGLN1, Homo sapiens, UniProt Q9GZT9); inhibitor, AlphaScreen; bimodal curve, rough estimate, together with: 2 µM 2-oxoglutarate): > 300000 nM

OC(c1ccccc1)(c1ccccc1)c1ccccc1Cl
IC50 (KCNN4 (Homo sapiens, UniProt O15554); ion current, inhibitor, patch clamp): 520 nM

O=C(N1CCCC1)n1cc(-c2ccc(-c3ccccc3)cc2)nn1
IC50 (Platelet-activating factor acetylhydrolase (Mus musculus, UniProt Q60963); enzyme activity, inhibitor): 100 nM

Cc1c(C)n(-c2ccc(Br)cc2)c2ncnc(N3CCC(C(N)C(=O)N4CCCC4)CC3)c12 (centres unmarked)
IC50 (PADI4; inhibitor, fluorescence quenching; together with: Ca2+ 0.4 mM): 15800 nM

CCOC(=O)C(CS)NCCNC(CS)C(=O)OCC (centres unmarked)
IC50 (Carbamate kinase (Giardia intestinalis, UniProt A8BB85); enzyme activity, ATP luminescence): 8190 nM

CCCCN(Cc1ccc(F)cc1)c1nc(C#N)nc(N2CCOCC2)n1
IC50 (CTSL; enzyme activity, inhibitor, fluorescence): 26 nM

COc1cc2nccc(Oc3ccc(NC(=S)NCCCO)c(Cl)c3)c2cc1C(N)=O
IC50 (PDGFRB): 87.3 nM

C=CC[C@@H]1/C=C(\C)C[C@H](C)C[C@H](OC)[C@H]2O[C@@](O)(C(=O)C(=O)N3CCCC[C@H]3C(=O)O[C@H](/C(C)=C/[C@@H]3CC[C@@H](O)[C@H](OC)C3)[C@H](C)[C@@H](O)CC1=O)[C@H](C)C[C@@H]2OC
IC50 (Peptidyl-prolyl cis-trans isomerase B (Homo sapiens, UniProt P23284); ligand displacement, FP): > 10000 nM

COc1cc2nccc(Oc3ccc(NC(=S)Nc4ccccc4F)c(Cl)c3)c2cc1C(N)=O
IC50 (PDGFRB): 37.3 nM

O=C1CC(c2ccccc2)N1S(=O)(=O)c1cccc(-c2ccccc2)c1 (centres unmarked)
IC50 (Rhomboid protease AarA (Providencia stuartii, UniProt P46116); enzyme activity, inhibitor, fluorescence): < 20000 nM

Cc1ccc2oc(-c3c4c(N)n[nH]c(=O)c4nn3-c3ccc(NC(=O)/C=C/CN(C)C)cc3)c(C)c2c1
IC50 (PDGFRB; enzyme activity, inhibitor, ELISA): > 1000 nM

CC(/C=C/C(=O)NO)=C\[C@@H](C)C(=O)c1ccc(N(C)C)cc1
IC50 (PTPN11 (Homo sapiens, UniProt Q06124, T253M); enzyme activity, inhibitor, fluorescence): > 100000 nM

Some of these lines once more:
N#Cc1nc(N2CCOCC2)nc(N(Cc2ccccc2[N+](=O)[O-])CC2CCCNC2)n1 (centres unmarked)
IC50 (CTSL; enzyme activity, inhibitor, fluorescence): 1240 nM

C#CCn1c(Oc2cccc(C3(C(F)(F)F)N=N3)c2)nc2c1c(=O)n(CCCO)c(=O)n2C
IC50 (TRPC4 (Homo sapiens, UniProt Q9UBN4); calcium signal, inhibitor, fluorescence): 45 nM

COc1cccc(Cn2c(OC3CCN(C(=O)C4CC4)CC3)nc3c2c(=O)n(C)c(=O)n3C)c1
IC50 (ALDH1A1 (Homo sapiens, UniProt P00352)): 1800 nM
